Measurements from different studies.
Compare with care: the assays were run in different laboratories. Values joined by “and” are separate records of one study, mostly repeats; a detail may differ.
Target: Ephrin type-A receptor 6 (EPHA6, Homo sapiens, UniProt Q9UF33)

| Compound | assay | test system | conditions | scale | quantity | value |
| --- | --- | --- | --- | --- | --- | --- |
| CC(C)=CC1OC(C)(C)C2C=C3C(=O)C(Cl)=CC(O)C3C3C(O)C4OC4C(=O)C132 (stereo not shown) | cell-free assay, competition with immobilised ligand | – | 10 µM | – | remaining binding | 95% |
| C=CC(=O)N1CCCC(n2c(=O)c3ncccc3n(Cc3ccc(Oc4ccccc4)cc3)c2=O)C1 (stereo not shown) | cell-free assay, competition with immobilised ligand | – | 1 µM | – | remaining binding | 100% |
| Cc1ccc(-c2c(/C=C(\C#N)C(=O)NC(C)C)n(CCCO)c3ncnc(N)c23)cc1 | cell-free assay, competition with immobilised ligand | – | 1 µM | – | remaining binding | 49% |
| CNC(=O)C1CCN(c2cc(C)c(F)cc2NC(=O)c2ccc(-c3cc(O)ccc3C)c(C)c2)CC1 | binding, competition with immobilised ligand | – | 1 µM | – | remaining binding | 16% |
| C[C@H]1CN(C(=O)c2cn(-c3ccnc(N)n3)c3cc(C#CC4(O)CCCCC4)ccc23)CCN1 | cell-free assay, TR-FRET | – | 1 µM | – | inhibition | -1% |
| NC(=O)C[C@H]1CCc2sc3ncnc(O[C@H]4CC[C@H](N5CCOCC5)CC4)c3c21 | enzyme activity, inhibitor | – | 10 µM | – | inhibition | 6% |
| Nc1ncc2c(n1)-c1c([nH]c3ccc(C4=CCOCC4)cc13)CCC2 | binding, competition with immobilised ligand | – | 1 µM | – | remaining binding | 97% |
| NC(=O)[C@@H](O)C[C@H]1CCc2sc3ncnc(O[C@H]4CC[C@H](N5CCOCC5)CC4)c3c21 | enzyme activity, inhibitor | – | 10 µM | – | inhibition | 9% |
| CCn1cc(C(=O)O)c(=O)c2c(N)c(F)c(NC3CCCCC3)cc21 | kinase activity | – | 0.1 µM, together with: ATP at Km | – | inhibition | 7.7% |
| Cc1cnc2nc1Nc1cccc(c1)COC/C=C/COCc1cc(ccc1OCCN1CCOCC1)N2 | binding | – | 0.1 µM | – | remaining binding | 95% |
| COc1c(Cl)cccc1Nc1c(-c2ccncc2C#C[C@@]2(C)CCCN2C(=O)/C=C/CN(C)C)[nH]c2c1C(=O)NCC2 | cell-free assay, competition with immobilised ligand | – | 3 µM | – | remaining binding | 48% |
| CNC1C[S+]2CC[S+]3CC[S+](C1)[Ru-4]321([N]=C=S)[n]2c3ccc(OC)cc3c3c4c(c5cc(F)c[n+]1c5c32)C(=O)NC4=O (stereo not shown) | KinomeScan | – | 0.1 µM | relative to: untreated | remaining binding | 94% |
| C=CC(=O)N1Cc2nc(-c3cc(-c4cc(Cl)cnc4Cl)c(F)cc3F)n(-c3ccncn3)c2C1 | cell-free assay | – | 1 µM | – | inhibition | 9% |
| CN1CCN(Cc2ccc(-c3ccc(CO[C@H]4CCC[C@@H]4NC(=O)c4cc(-c5cnn(C)c5)cnc4N)cc3)cc2)CC1 | enzyme activity, inhibitor | – | 0.1 µM | – | inhibition | -6% |
| CCN1CCN(Cc2ccc(C(=O)Nc3ccc(C)c(NCc4cnc5[nH]ccc5c4OC)c3)cc2C(F)(F)F)CC1 | binding, competition with immobilised ligand | – | 1 µM | – | remaining binding | 36% |
| COc1cc(Nc2nccc(-c3cnn4nc(OC)ccc34)n2)cc(C(F)(F)F)c1 | binding, competition with immobilised ligand | – | 1 µM | – | remaining binding | 98% |
| N[C@H]1CC[C@H](Nc2nccc(-c3cccnc3Oc3ccc(NC(=O)NC4CC4)c4ccccc34)n2)CC1 | kinobead competition pulldown | HEK293/HCT116 lysate mixture | 10 µM, 1 h, 4 °C | lower = stronger competition | log2 LFQ intensity | 20.3 and 17.8 and 20.2 and 19.8 |
| C=CC(=O)N1CCc2ccc(-n3c(=O)ccc4cnc5ccc(-c6cnn(C)c6)cc5c43)cc21 | KINOMEscan | – | 1 µM | relative to: DMSO control | remaining binding | 100% |
| Nc1ncc(-c2cc(-c3cnn(CC(F)(F)F)c3)ncc2F)nc1C(=O)NC1CNCC(F)C1 (stereo not shown) | enzyme activity | – | 1 µM | relative to: DMSO control | remaining activity | 81.3% |

Some of these lines once more:
| Compound | assay | test system | conditions | scale | quantity | value |
| --- | --- | --- | --- | --- | --- | --- |
| Cc1ccc(-c2c(/C=C(\C#N)C(=O)NC(C)C)n(CCCO)c3ncnc(N)c23)cc1 | cell-free assay, competition with immobilised ligand | – | 1 µM | – | remaining binding | 49% |
| CNC(=O)C1CCN(c2cc(C)c(F)cc2NC(=O)c2ccc(-c3cc(O)ccc3C)c(C)c2)CC1 | binding, competition with immobilised ligand | – | 1 µM | – | remaining binding | 16% |
| COc1cc(Nc2nccc(-c3cnn4nc(OC)ccc34)n2)cc(C(F)(F)F)c1 | binding, competition with immobilised ligand | – | 1 µM | – | remaining binding | 98% |
